# Published values collected from several papers.
# Every numbered part comes from another study and shows a few of its results, in no order. Substitutions count along the parent as printed.

# Study 1 — technique: competition protein-binding microarray; form: double-stranded DNA, one strand shown; medium: in vitro; concentration: 2 µM; with: Cbf1 competitor, 0.05 µM; direction: higher = stronger binding; all sequences stand within: … GTCTTGATTCGCTTGACGCTGCTG
# Target: Phosphate system positive regulatory protein PHO4, full length, GST-tagged (PHO4, Saccharomyces cerevisiae, UniProt P07270, residues 1-312)
# Setting: whole 60-bp probe, lowest competitor level
# Residues (chain): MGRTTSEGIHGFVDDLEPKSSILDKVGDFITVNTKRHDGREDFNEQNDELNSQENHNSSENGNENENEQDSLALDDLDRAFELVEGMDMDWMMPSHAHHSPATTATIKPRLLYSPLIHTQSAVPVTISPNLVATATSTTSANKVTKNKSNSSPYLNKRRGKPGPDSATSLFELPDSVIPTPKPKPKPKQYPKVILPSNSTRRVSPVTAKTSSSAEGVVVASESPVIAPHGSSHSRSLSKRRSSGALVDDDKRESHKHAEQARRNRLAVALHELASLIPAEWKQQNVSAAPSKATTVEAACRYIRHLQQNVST
Sequence,fluorescence intensity [a.u.]
CGTCCTAGCGATTGATTCGTGGGTGCCATGAGGAAG,6820
TGTCCAAGTCTGATCCATGTGTCTTGACCTATATGT,8460
GCCATGTTTATTAAACTCGTGTATCCATAAGGACTC,9480
CCGCCCTTCAAAGTCCTCGTGCTGTGTATCAATTCC,12000
AAACCACCCTCTTTTCACGTTTCTTCAAGGCCAGTG,8560
TGCGCAACAACTTGTCACCTAACTTTATGTCTAGAA,3680
TTTATATTCTTGTTCCTCGTGGCCGAATGGTTACGG,13100
CGGGGTTAAGTTTAGCACGTGTTTTGCTTGCAGCAG,18300
CTTGGGCAAGCGAGTCACGTACTTTTTTTTTTTTTT,4550
ACTTTATACCACCACCACATGCCATACTCACCCTCA,10900
TGTCTGGGACCGCTTCACGGGTCCAAATTACCACTT,4230
TGGCGCTATCTAAATTCATGATGAAACTCGATGGCC,2850
AAAGCGGTAATTTGGCTAGTGGGTGCAGATATCTAT,4680
ACCATTGTAGTTATCAACGTGAGCCATAATAGGTTC,9820
GGGCTTCGGAGTTAGCACGTTGAAAGGCATCTGCCA,9050
TTTTCTGACCGCCAGTTCGTGCGATTAGTTCTGTGG,6710
CTAACGAAGGTTTGTATCGTGGGTGACAAGCCAAGT,7790
CTCGTTACATGTTCCAACGTGACTCGAGAAAGCATG,11300

# Study 2 — target: CCNB1, cyclin fold, Cln2 fusion (human); technique: yeast growth competition, sequencing; medium: yeast; setting: weak parent motif; reference: not given; direction: higher = stronger binding
# Starting sequence: SAMHD1 docking peptide (human); ASKSRVQLFKDDP
Variant,normalised enrichment score
ASKSRGQLFKDDP [V6G],0.273
ASKSRVTLFKDDP [Q7T],0.239
ASKSRVQLFKHDP [D11H],0.644
ASKSRVQLFQDDP [K10Q],0.0585
AEKSRVQLFKDDP [S2E],0.281
ASKSRVQYFKDDP [L8Y],0.284
ASASRVQLFKDDP [K3A],0.337
ASKSRVQLFSDDP [K10S],0.464
AHKSRVQLFKDDP [S2H],0.55
AGKSRVQLFKDDP [S2G],0.17
ARKSRVQLFKDDP [S2R],0.00988
ASKSRVQLFKRDP [D11R],0.39
ASKSRVQLFKWDP [D11W],0.0761
ASKSRVQAFKDDP [L8A],0.185
ASKSRVWLFKDDP [Q7W],0.334
ASKSRVQLFPDDP [K10P],0.137
ASKSRVYLFKDDP [Q7Y],0.286
AIKSRVQLFKDDP [S2I],0.6
ASKWRVQLFKDDP [S4W],0.74
ASKDRVQLFKDDP [S4D],0.226
ASKSRVQLFKDRP [D12R],-0.26

# Study 3 — technique: universal PBM; form: double-stranded DNA, one strand shown; medium: in vitro; concentration: not given; direction: higher = stronger binding
# Target: Sal-like protein 4, full length isoform B (SALL4, Homo sapiens, UniProt Q9UJQ4-2, residues 1-616)
# Setting: 8-mer, flanks averaged, mean of replicates
Sequence,E-score
AGCACGAT,0.0353
AATCCCGG,-0.244
GGCGTTAC,-0.132
AAAGCTAG,0.0322
AGGGCACC,-0.39
TCGGCAGA,-0.188
ATCGTATG,0.213
ATCAACAT,0.281
GAACCAGC,-0.13
CTGGACTC,-0.0537
GACGTGTA,0.0171
CGTGAAGA,-0.0287
ATGGTCCC,-0.165
AGGCCCGA,-0.281
GCTCAAAC,-0.108
GCATCAAC,-0.0453
ACCAGACG,-0.101
CGCTGGTC,-0.271
ATATCTCC,0.235
ACAAAGTA,0.222
ATAACGTC,0.268
GGTGAAGA,-0.167
CTTTTTGA,0.0956
AAGGTATA,0.285
AAAGAGCG,-0.189

# Study 4 — technique: DHFR PCA, deep sequencing; medium: yeast; with: (+)-ABA 58 µM; reference: wild-type fitted maximum; direction: higher = stronger binding
# Target: ABI1, truncated, D143A, DHFR fusion (Arabidopsis thaliana)
# Setting: methotrexate growth selection, single substitutions
# Starting sequence: PYL1, truncated, DHFR fusion (Arabidopsis thaliana); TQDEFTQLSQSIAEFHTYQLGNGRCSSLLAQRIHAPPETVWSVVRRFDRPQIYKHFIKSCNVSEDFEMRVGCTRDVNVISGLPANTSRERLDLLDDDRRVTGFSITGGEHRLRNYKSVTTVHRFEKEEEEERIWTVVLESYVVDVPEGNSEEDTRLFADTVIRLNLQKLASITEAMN
Variant,relative binding score [%]
L138I,66.3
N77K,90.8
S63R,85.9
D65H,85.3
K58I,33.3
L82K,-8.61
S117D,5.74
D92L,29
N77G,82.8
P50Q,6.31
E125D,92.3
P50I,1.78
N165V,6.08
Q51C,25.4
K116Y,27.2
F124I,93

# Study 5 — technique: protein binding microarray; form: double-stranded DNA, one strand shown; medium: in vitro; concentration: not given; reference: not given; direction: higher = stronger binding
# Target: Histone acetyltransferase KAT6A, both winged helices, GST fusion (KAT6A, Homo sapiens, UniProt Q92794, residues 1-181)
# Setting: 8-mer, flanks averaged, mean of 2 arrays, mostly near background
# Residues (chain): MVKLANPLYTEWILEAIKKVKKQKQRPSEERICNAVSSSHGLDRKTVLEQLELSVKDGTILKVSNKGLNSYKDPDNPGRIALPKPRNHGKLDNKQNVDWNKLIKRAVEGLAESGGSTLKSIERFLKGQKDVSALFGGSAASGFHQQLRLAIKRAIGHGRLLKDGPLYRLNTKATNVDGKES
Sequence,E-score
TACGGCCA,0.127
ATCTTCAT,-0.0413
ACTCCACC,-0.211
CCCCGGTA,0.141
AAAATAGT,-0.115
AATGCTCG,-0.106
AGCTTACG,0.12
GATAAGAA,0.138
CAGCCTTA,-0.176
ACTTGCGG,0.0862
AAAGCGAT,0.0886
ACAGCTGG,-0.132
ATATGCGC,0.201
GGGCTGAA,0.0678
CGCTCCAA,0.0694
AATCAACT,-0.0424
CCACATGA,-0.176
AATGGCAG,-0.167
AGCCGCTA,0.233
AGAGCGGA,0.13
AAGAGTAT,-0.182

# Study 6 — technique: protein-binding microarray; form: hairpin DNA; medium: in vitro; concentration: not given; reference: not given; direction: higher = stronger binding
# Target: Runt-related transcription factor 3, Runt domain (RUNX3, Homo sapiens, UniProt Q13761, residues 53-186)
# Chain of UniProt Q13761 (53-186, looked up): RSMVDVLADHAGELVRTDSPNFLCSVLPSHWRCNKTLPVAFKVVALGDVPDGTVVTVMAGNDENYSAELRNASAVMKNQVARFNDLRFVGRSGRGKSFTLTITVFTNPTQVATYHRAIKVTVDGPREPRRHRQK
# Setting: whole hairpin DNA, median over replicate spots
Sequence,median fluorescence
GAGGCCCGTTGTGGTTGGCCTCCTGGCCAACCACAACGGGCCTCACACTC (5mC at 7),5630 a.u.
CTCAGTTCTGTGGCGTGGACTCCTGTCCACGCCACAGAACTGAGACACTC (5mC at 30),3870 a.u.
GAGGCCTGTTGTGCTTGGCCTCCTGGCCAAGCACAACAGGCCTCACACTC (5mC at 14),4350 a.u.
GAGGCCTGTCGTGGTTGGCCTCCTGGCCAACCACGACAGGCCTCACACTC (5mC at 34),5300 a.u.
GAGGCCTGTCGCCGTTGGCCTCCTGGCCAACGGCGACAGGCCTCACACTC (5mC at 13 31),4940 a.u.
GAGGCCCAACCGCAACGGCCTCCTGGCCGTTGCGGTTGGGCCTCACACTC (5mC at 16),10400 a.u.
GAGGCCCAACCGCAACAGCCTCCTGGCTGTTGCGGTTGGGCCTCACACTC (5mC at 7),9310 a.u.
GAGGCCCAACCGCAGCAGCCTCCTGGCTGCTGCGGTTGGGCCTCACACTC,7300 a.u.
GAGGCCCAACCGCCGCAGCCTCCTGGCTGCGGCGGTTGGGCCTCACACTC (5mC at 14),5810 a.u.
GAGGCCTGTCGCGGTTGGCCTCCTGGCCAACCGCGACAGGCCTCACACTC (5mC at 10 12 32 34),4840 a.u.

# Study 7 — technique: protein-binding microarray; form: double-stranded DNA, one strand shown; medium: in vitro; concentration: 250 nM; setting: 60-bp whole probe; with: salmon DNA 0.4 mg/ml; reference: random background probes; direction: higher = stronger binding; all sequences stand within: GCCTAGCAC … GTCTTGATTCGCTTGACGCTGCTG
# Target: Interferon regulatory factor 5, full length, phosphomimetic (IRF5, Homo sapiens, UniProt Q13568-2, residues 1-514, K96S/S451D/S453D/S456D/S462D)
Sequence,log fluorescence
TTAGGTTTCAGACTGGGTTAGTGCTAG,0.685 z-score
GACGGATTCGGTCTCGGGACGTGCTAG,0.444 z-score
CTCATTCTCCACTTGTGTTTGTGCTAG,0.546 z-score
TTACGTTTCGGGACTGGGTTAGTGCTA,6.25 z-score
GACGATCTCGGGTATCGAGACGTGCTA,0.446 z-score
AGGGAGGTCTCTCCCGACCTGTGCTAG,-0.977 z-score
TCAAGCCTCCATTTTTAACTGTGCTAG,-0.182 z-score
GTCGGACTGGGGTTTCGGGACGTGCTA,1.25 z-score
TTAGAACTAAGTTTCGATTAGTGCTAG,9.46 z-score
ATGCTACTGCATTTTTTTTTGTGCTAG,0.315 z-score
GACGGTCCCCTTCTCCTGACGTGCTAG,-0.308 z-score
TTAGAACTGAGTTCCGATTAGTGCTAG,0.814 z-score
TCAGATCTGCCGTCCCACACTGTGCTA,-0.1 z-score
TCAGCTCTGTGCATAGTACTGTGCTAG,-0.171 z-score
TTAGAACTGAGTATCGGTTAGTGCTAG,7.01 z-score
GACGAACTGAGAGTGGAGACGTGCTAG,-0.427 z-score
GACGGTATCGGGTTTCCGGACGTGCTA,3.05 z-score
GCTGTTCTCAGACTGGGTGCGTGCTAG,-0.295 z-score
GACGGTTTCGAATATCGGGACGTGCTA,4.65 z-score
TTAGATCTCAGTCTCGATTGGTGCTAG,0.609 z-score
GAATGAATGGACATTTCTTCGTGCTAG,0.206 z-score
GACGAACTCAGTTTCGAGACGTGCTAG,5.42 z-score
GACGTTATCGGTCTCGGGACGTGCTAG,4.96 z-score
